Results of several laboratories.
Each numbered part is a random draw from the data of one study; scales do not carry over between parts. Changes are numbered by the printed parent chain.

Study 1 — target: CCNE2, cyclin fold, Cln2 fusion (human); technique: yeast growth competition, sequencing; medium: yeast; setting: strong parent motif; reference: not given; reading: higher = stronger binding
Parent: CDKN1A docking peptide (human); SKACRRLFGPVDS
Variant | normalised enrichment score
SKACRRLFGPVFS [D12F] | 2.21
SKKCRRLFGPVDS [A3K] | 1.14
SKACRRLFGIVDS [P10I] | 2.69
SKACRRPFGPVDS [L7P] | 0.477
SKAKRRLFGPVDS [C4K] | 3.82
SKACRRLFGGVDS [P10G] | 3.49
SKACRRMFGPVDS [L7M] | 0.482
SKACRRLPGPVDS [F8P] | 0.167
SIACRRLFGPVDS [K2I] | 2.09
SYACRRLFGPVDS [K2Y] | 2.9
SQACRRLFGPVDS [K2Q] | 3.2
SKAYRRLFGPVDS [C4Y] | 0.302
SKACVRLFGPVDS [R5V] | 0.304
SKACCRLFGPVDS [R5C] | 0.353

Study 2 — technique: RNA Bind-n-Seq; molecule type: RNA; medium: in vitro; concentration: 365 nM; reference: no-protein control; reading: higher = stronger binding
Target: RNA binding protein fox-1 homolog 2, RRM domain, GST-SBP tag (RBFOX2, Homo sapiens, UniProt O43251-10, residues 100-194)
Setting: natural RNA segment, single round, ends assumed
Constant ends, left off below: GGGAGUUCUACAGUCCGACGAUC … UGGAAUUCUCGGGUGCCAA
Sequence | RBNS enrichment (R)
UCAUGCCUGAGUCAGGAAUACAUGGAGAGACAGCCUACAUCUGACAGACUCCCACAAAACAAACUGCCAGCAAACUUUCUAACUCAUUUUAACCGUUCAAGCGGGGAAUU | 0.662
UGUUACUGAAAACUAGAUGUAAACUUAAGUAUUUAGAACAAAAACUACUAGUAAAUACUCAGAACUCUCCCUUCCUGUUGCCUUGCAUUUGGCCAUUAGACAAACUCCUG | 2.11
GCUCAUGAGCUGGUCUAAUGCAGUCACAUUGGUGCUGAGCUGCCCAGGACCCUGGGACAUAGAUAAAGCCCGCCUCCAGUCCCUGGGUGCUGGAACAGAUUGUCUGGGAG | 0.497
CCCUUCCCAGACUUGUGAUCCAUUCCCUGCAGCAAAGGAACACUGGAAGAAAGAUGGAGCUCCUCCACAGAGACAGAAAGAAACCACAGCAAGAAAACAGACCUCAAGUU | 0.564
ACUUGAAGAAUUUAAUAGGUACAGAAGUUUAUUCUGGAUAAUAAAUAAAUAAGGAUCACACUGUAUUAGGGGUUAUGGCAACAUUAUUGAAUUUUUUAUGUACAUAAAGC | 0.642
CCAGGACACAUUUCCACUAUAAUUUUACAAAGUUAAAUUUAUAAGCUAGCAUUAAGUAAAGUGAAGUCCAGCUCCCUUGCUAAAAAUAACUAGAGGUAAUAAUUGGUAUU | 0.561
AAUAUUUUUGAUCGACCAAAUAAAAUGUCCUAAUAAUCUACUCUAUUUAUAUCUACAUUUCCUUCCAGCUGAGUCUUCAAAUUUAGCAUUAUUUUGACACUUUUAAUUUU | 0.843
GAAAAGGGAUGAAAUUGAAGAAACUGAAACUUCACGGAAUUUGGAAGAGUGGUUUUAACAUGGGACAGAAAAUAGUCUUUUCCUAUUCUCUCAAUCCAUUUUUAGGUAGA | 0.625
UCCCUAUUCUGCUGUAGGGGACUAGAUUUCUAAUAGAGAACAUUGGCAUGGUAGCUGAAGCCCACUCCUGUGCAAGCCAUACUGGAACUUCAUAUUGAGAAUAGAAGACG | 0.807
GACUAACUCUUCAGUUAAGAACACUGUAGAAAUGGUAGACCAACUUAAAGUCUACCUUUUAACAAUCUUUACCCCAAACCUAAAGAUUCUAGGGGUCACUUAUCUCUAUU | 0.4
AGGACAGCCACCCAGGUCUGCAGCCCCACAAGGCCCUGCUCCUGAUCAGCCUCAGCCAGAGGACGAGGAGGCAGGUGACUGUCAUCAGCCUCGACUGCCACAGAGAAGCA | 3.94
GUAAAUUAACUCACCAGAUUUACUGGGCCUGAACUCAUUCUCUUCUUGCUAUAUGAUUUAGCAAGUUCUAGAAGGUCUCCAAGACAAUAAUUACAUUGGCACAAUGUAUA | 0.475

Study 3 — technique: protein binding microarray; molecule type: double-stranded DNA, one strand shown; medium: in vitro; concentration: not given; reference: not given; reading: higher = stronger binding
Target: Histone acetyltransferase KAT6A, both winged helices, GST fusion (KAT6A, Homo sapiens, UniProt Q92794, residues 1-181)
Setting: 8-mer, flanks averaged, mean of 2 arrays, mostly near background
Residues (chain): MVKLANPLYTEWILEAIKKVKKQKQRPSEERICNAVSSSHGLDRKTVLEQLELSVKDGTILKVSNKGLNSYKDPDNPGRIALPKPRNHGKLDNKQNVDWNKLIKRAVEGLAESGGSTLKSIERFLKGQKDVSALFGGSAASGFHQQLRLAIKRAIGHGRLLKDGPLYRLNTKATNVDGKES
Sequence | E-score
ATCATGTA | -0.0828
AATCAACC | -0.0117
CACACATC | -0.187
GAAGGTCC | -0.0183
GAGCGGCC | 0.326
ACGGCCGT | 0.357
CAAAACAA | -0.101
ACCTACGA | -0.228
GGCAAACC | 0.0271
AAAGAAGG | -0.161
TTCATAAA | -0.0948
CGTTCGAA | 0.001
GCGTGGTA | 0.14
ATGCTCTG | -0.109
CCCCGTCG | 0.212
TGTTGTAA | 0.0386
ATCGAAAC | 0.137
AGTACTTA | -0.113
GAACGATA | -0.0445
CAACAGCA | -0.0646
CCTCCACG | 0.0154

Study 4 — technique: aptamer microarray, sandwich; molecule type: DNA with 2'F-ANA; medium: in vitro; concentration: 200 nM; added: Cy3 exosite-II aptamer, 400 nM; reading: higher = stronger binding; sequence: GGTTGGTGTGGTTGG
Target: Prothrombin, mature alpha-thrombin (F2, Homo sapiens, UniProt P00734)
Setting: whole 15-mer aptamer, many near background
Modification | mean fluorescence intensity
2'F-ANA at 3 4 7 9 10 11 12 | 392 a.u.
2'F-ANA at 4 10 15 | 86.2 a.u.
2'F-ANA at 4 7 8 9 13 14 | 93.2 a.u.
2'F-ANA at 2 3 4 5 7 8 11 13 15 | 65.6 a.u.
2'F-ANA at 4 5 6 8 10 | 44.6 a.u.
2'F-ANA at 1 9 10 11 12 13 15 | 71 a.u.
2'F-ANA at 1 2 4 5 7 9 11 12 14 15 | 48.8 a.u.
2'F-ANA at 6 7 8 12 13 | 677 a.u.
2'F-ANA at 2 4 7 10 | 112 a.u.
2'F-ANA at 6 7 8 13 14 | 192 a.u.
2'F-ANA at 1 2 3 5 6 9 13 15 | 53.2 a.u.
2'F-ANA at 1 2 3 4 6 8 9 11 12 14 15 | 71.2 a.u.
2'F-ANA at 1 3 5 7 9 12 15 | 122 a.u.
2'F-ANA at 1 2 3 5 8 11 14 15 | 45.6 a.u.
2'F-ANA at 2 11 12 | 661 a.u.
2'F-ANA at 3 4 5 6 13 | 64.8 a.u.
2'F-ANA at 1 7 8 10 11 12 14 | 51.7 a.u.
2'F-ANA at 2 6 7 15 | 443 a.u.
2'F-ANA at 2 3 4 6 8 9 10 11 12 13 14 15 | 128 a.u.
2'F-ANA at 1 3 6 8 11 12 14 | 119 a.u.
2'F-ANA at 2 3 5 7 8 9 10 11 13 14 | 50.8 a.u.
2'F-ANA at 2 7 9 14 | 157 a.u.
2'F-ANA at 1 4 5 6 8 10 13 | 52.2 a.u.
2'F-ANA at 1 3 4 6 7 9 13 14 15 | 56.1 a.u.
2'F-ANA at 1 3 5 7 8 9 12 14 | 45.2 a.u.

Study 5 — technique: RNA Bind-n-Seq; molecule type: RNA; medium: in vitro; concentration: not given; setting: RNA with constant flanks, ends assumed; reference: input RNA pool; reading: higher = stronger binding
Target: RING finger protein unkempt homolog, zinc fingers 1-6, GST-SBP tag (UNK, Homo sapiens, UniProt Q9C0B0, residues 30-357)
Constant ends, left off below: GGGAGUUCUACAGUCCGACGAUC … CAACAGAGGAUUGAGCAUCA
Target sequence (chain): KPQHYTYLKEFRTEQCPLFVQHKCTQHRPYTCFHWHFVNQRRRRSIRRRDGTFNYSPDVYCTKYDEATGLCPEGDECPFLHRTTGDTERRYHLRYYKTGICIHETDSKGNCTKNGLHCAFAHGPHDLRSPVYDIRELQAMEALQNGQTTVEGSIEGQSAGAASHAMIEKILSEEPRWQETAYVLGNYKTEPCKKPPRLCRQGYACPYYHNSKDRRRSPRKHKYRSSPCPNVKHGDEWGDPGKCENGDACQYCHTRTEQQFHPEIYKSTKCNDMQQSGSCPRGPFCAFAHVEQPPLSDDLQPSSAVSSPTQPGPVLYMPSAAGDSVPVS
Sequence | bound/input enrichment
CCCUGGGGUAUGACGUGGCAUGGGGGAGCAAGCAGUCCAGGGGACCUCUUGGAAACAGCAUCCGGCUUUUUCCCUUUUCAGUAACAUUGUUCGGAACUACUUGUCAAUGUGUUUGAGGUG | 0.292 ratio
UGUGUAUAGGGGGAAGGGGUUCUUUACAUUUUCUGUGGUUUGUGCUUUUUUCUUCAGUAAAUCCGUUCCCACCAUCGCAUGCCCAGGGGCCACUACCUGGCAUUAUCGCAUGCUGGGAUC | 0.491 ratio
CUGAAGGUUCUAGGCACAGCUUUUGAUCCCUUCUUAGGAGGAAAGAACUUUGAUGAGAAGCCCGCCGAACAUUUUUGUGCUGAAUUUAAAACCAAGUACAAAUUGGAUGCAAAAUCCAAA | 0.0968 ratio
CUCUUCCUCCCCACCCUGAAAAAAAUGAGUUCCUAUUUUUUCUGGGAGAGGGGGGGAUUGAUCCGAAAAAAAUGUAGUGUGUUCCAUUUAAAAUUUUGGCAUAUGGCAUUUUCUAACUUA | 0.201 ratio
AACCUUCAACAGUAGAAGUUCUAGAAAAUAUAGAUAAGGAAAUUCAAGCAUUGGAAGAAUUCCGAGAAAAAAAUCAGAGAUUGCAAAAAUUAUGGGUUGGAAGAUUAAUUAUCUAUUCUU | 2.89 ratio
UGGUGCCCAUGGCGGCCGCCCCGGAGCCCCACGAGACGGAGAAAAAGCCCUUCAAGCUCCCCGGUAUUUUAGAUGUUGAGAACACUCCAUGUGCUCGAGAAUCUAUACUCUAUGGCUCAU | 0.129 ratio

Study 6 — technique: universal PBM; molecule type: double-stranded DNA, one strand shown; medium: in vitro; concentration: not given; reading: higher = stronger binding
Target: Sal-like protein 4, full length isoform B (SALL4, Homo sapiens, UniProt Q9UJQ4-2, residues 1-616)
Setting: 8-mer, flanks averaged, mean of replicates
Residues (chain): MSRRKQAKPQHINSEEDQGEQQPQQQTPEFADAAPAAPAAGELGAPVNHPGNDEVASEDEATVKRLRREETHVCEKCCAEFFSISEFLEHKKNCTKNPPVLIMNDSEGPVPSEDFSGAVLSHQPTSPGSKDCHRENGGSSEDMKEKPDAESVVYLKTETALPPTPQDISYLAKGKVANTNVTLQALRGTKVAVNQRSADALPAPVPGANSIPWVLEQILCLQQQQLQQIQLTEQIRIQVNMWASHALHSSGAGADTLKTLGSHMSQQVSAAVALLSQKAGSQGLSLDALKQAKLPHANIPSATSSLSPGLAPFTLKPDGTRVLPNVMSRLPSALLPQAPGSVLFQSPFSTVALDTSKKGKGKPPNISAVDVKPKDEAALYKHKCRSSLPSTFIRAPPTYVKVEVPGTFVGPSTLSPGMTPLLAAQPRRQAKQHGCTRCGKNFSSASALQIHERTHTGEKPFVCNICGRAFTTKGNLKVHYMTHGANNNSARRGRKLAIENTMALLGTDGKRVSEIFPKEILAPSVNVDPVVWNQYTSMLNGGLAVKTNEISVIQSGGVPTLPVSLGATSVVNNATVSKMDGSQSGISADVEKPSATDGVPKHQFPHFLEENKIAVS
Sequence | E-score
AATTTGAG | 0.192
TACTAACA | 0.203
AATTGCGA | 0.109
ACGGGTCA | -0.265
AAATTGCG | 0.211
CTCTTCCC | -0.0603
CTAGCTAC | -0.197
CTTGGTTC | 0.00999
ATTGTTCA | 0.243
ACAATCGA | -0.00124
ATGCGTGC | 0.0719
CATAGTCA | 0.134
CCTTCGCA | 0.00361
ATGAACAA | 0.294
CGCCTAAA | -0.00768
CGTGGTCA | -0.309
AGAGGTAC | -0.176
TCACTGGA | -0.00487
AACGATGG | -0.068
CTTTTTCA | 0.208
GCGTAGAA | -0.0278
CAAATCCA | 0.177
CTCTAAAG | -0.122
CATTCTTA | 0.16
